Results of several laboratories.
Compare with care: the assays were run in different laboratories. ± marks the error that the study gave.

CCCCCCCC(=O)OC[C@H](NC(=O)[C@H](CO)NC(=O)CN)C(=O)N[C@@H](Cc1ccccc1)C(=O)N[C@@H](CC(C)C)C(=O)N[C@@H](CO)C(=O)N1CCC[C@H]1C(=O)N[C@@H](CCC(=O)O)C(=O)N[C@@H](Cc1cnc[nH]1)C(=O)N[C@@H](CCC(N)=O)C(=O)N[C@@H](CCCNC(=N)N)C(=O)N[C@H](C(=O)N[C@@H](CCC(N)=O)C(=O)N[C@@H](CCC(N)=O)C(=O)N[C@@H](CCCNC(=N)N)C(=O)N[C@@H](CCCCN)C(=O)N[C@@H](CCC(=O)O)C(=O)N[C@@H](CO)C(=O)N[C@@H](CCCCN)C(=O)N[C@@H](CCCCN)C(=O)N1CCC[C@H]1C(=O)N1CCC[C@H]1C(=O)N[C@@H](C)C(=O)N[C@@H](CCCCN)C(=O)N[C@@H](CC(C)C)C(=O)N[C@@H](CCC(N)=O)C(=O)N1CCC[C@H]1C(=O)N[C@@H](CCCNC(=N)N)C(=O)O)C(C)C — Cmax (two-site ELISA; human, plasma; intravenous infusion, 3 µg/kg/h, 65 min infusion): 11.7 ± 2.4 ng/mL
CCc1c2c(nc3ccc(OC4OC(C(=O)O)C(O)C(O)C4O)cc13)-c1cc3c(c(=O)n1C2)COC(=O)C3(O)CC (centres unmarked) — Cmax (human patients, plasma; intravenous, 12 mg/m2 of parent drug): 10 ng/mL
CC(C)C[C@@H](NC(=O)[C@@H](Cc1ccccc1)NC(=O)[C@H](N)Cc1ccccc1)C(=O)N[C@H](CCCCN)C(=O)N1CCC(N)(C(=O)O)CC1 — Cmax (human, plasma; intravenous, 5 µg/kg): 61.9 ng/mL
CC(=CCC(O)C(C)=Cc1csc(C)n1)CC=CC(C)C(O)C(C)C(=O)C(C)(C)C(O)CC(=O)O (centres unmarked) — Cmax (human, plasma; intravenous infusion, 20.0 mg/m2 KOS-1584, 3 h infusion, cycle 1): 11.8 ± 9.15 ng/mL
CC(C)C[C@H](NC(=O)[C@H](CCCCN)NC(=O)[C@H](C)NC(=O)[C@@H]1CCCN1C(=O)[C@@H]1CCCN1C(=O)[C@H](CCCCN)NC(=O)[C@H](CCCCN)NC(=O)[C@H](CO)NC(=O)[C@H](CCC(=O)O)NC(=O)[C@H](CCCCN)NC(=O)[C@H](CCCNC(=N)N)NC(=O)[C@H](CCC(N)=O)NC(=O)[C@H](CCC(N)=O)NC(=O)[C@@H](NC(=O)[C@H](CCCNC(=N)N)NC(=O)[C@H](CCC(N)=O)NC(=O)[C@H](Cc1cnc[nH]1)NC(=O)[C@H](CCC(=O)O)NC(=O)[C@@H]1CCCN1C(=O)[C@H](CO)NC(=O)[C@H](CC(C)C)NC(=O)[C@H](Cc1ccccc1)NC(=O)[C@H](CO)NC(=O)[C@H](CO)NC(=O)CN)C(C)C)C(=O)N[C@@H](CCC(N)=O)C(=O)N1CCC[C@H]1C(=O)N[C@@H](CCCNC(=N)N)C(=O)O — Cmax (ELISA; healthy humans, both sexes, plasma; intravenous infusion, 4 µg/kg/h, 210 min): 15.9 ± 4.91 ng/mL
CSCC[C@H](NC(=O)[C@H](CO)NC(=O)[C@H](Cc1ccc(O)cc1)NC(=O)[C@@H](N)CO)C(=O)N[C@@H](CCC(=O)O)C(=O)N[C@@H](Cc1c[nH]cn1)C(=O)N[C@@H](Cc1ccccc1)C(=O)N[C@@H](CCCNC(=N)N)C(=O)N[C@@H](Cc1c[nH]c2ccccc12)C(=O)NCC(=O)N[C@@H](CCCCN)C(=O)N1CCC[C@H]1C(=O)N[C@H](C(=O)NCC(=O)N[C@@H](CCCCN)C(=O)N[C@@H](CCCCN)C(=O)N[C@@H](CCCNC(=N)N)C(=O)N[C@@H](CCCNC(=N)N)C(=O)N1CCC[C@H]1C(=O)N[C@H](C(=O)N[C@@H](CCCCN)C(=O)N[C@H](C(=O)N[C@@H](Cc1ccc(O)cc1)C(=O)N1CCC[C@H]1C(=O)N[C@@H](CC(=O)O)C(=O)NCC(=O)N[C@@H](C)C(=O)N[C@@H](CCC(=O)O)C(=O)N[C@@H](CC(=O)O)C(=O)N[C@@H](CCC(=O)O)C(=O)N[C@@H](CC(C)C)C(=O)N[C@@H](C)C(=O)N[C@@H](CCC(=O)O)C(=O)N[C@@H](C)C(=O)N[C@@H](Cc1ccccc1)C(=O)N1CCC[C@H]1C(=O)N[C@@H](CC(C)C)C(=O)N[C@@H](CCC(=O)O)C(=O)N[C@@H](Cc1ccccc1)C(=O)O)C(C)C)C(C)C)C(C)C — Cmax (healthy human subjects, plasma; subcutaneous, 80 IU three times weekly, day 15, repository corticotropin injection): 0.301 ng/mL
CC[C@H](C)C(=O)N1CCC(NC(=O)Nc2ccc(OC(F)(F)F)c(F)c2)CC1 — Cmax (human; oral, 8 mg, fed, geometric LS mean): 58.6 ng/mL
CC1(C)C(=O)N(c2ccc(C#N)c(C(F)(F)F)c2)C(=S)N1c1ccc(C(N)=O)c(F)c1 — Cmax (human, male, plasma; oral, 160 mg, single dose, after high-fat meal): 463 ± 128 ng/mL

A few entries again:
CCc1c2c(nc3ccc(OC4OC(C(=O)O)C(O)C(O)C4O)cc13)-c1cc3c(c(=O)n1C2)COC(=O)C3(O)CC (centres unmarked) — Cmax (human patients, plasma; intravenous, 12 mg/m2 of parent drug): 10 ng/mL
